Results pooled from the literature.
Each line is one published result; not all experiments were run side by side. ± marks the error that the study gave.
Cell line: MOLT-4

| SMILES | observed | method | tested at | time | added | endpoint | result |
| --- | --- | --- | --- | --- | --- | --- | --- |
| CCCCCCCCC=CCCCCCCCC(=O)OCC1OC(n2ccc(N)nc2=O)C(F)(F)C1O (centres unmarked) | cell growth |  |  |  | dipyridamole 4 µg/mL | IC50 | 0.021 ± 0.002 µM |
| CC(=O)c1cccc(NC2C(N)C(NC(=O)N(C)C)(C(C)O)C(O)C2(O)COC(=O)c2c(C)cccc2O)c1 (centres unmarked) | cell growth or viability | SRB |  |  |  | GI50 | 0.046 µM |
| Cc1sc2c(c1C)C(c1ccc(Cl)cc1)=N[C@@H](CC(=O)NCCCCCCCCC(=O)N1CCN(C(=O)c3cc(Cc4n[nH]c(=O)c5ccccc45)ccc3F)CC1)c1nnc(C)n1-2 | cell growth or viability | ATP luminescence |  | 72 h |  | IC50 | 0.131 µM |
| COc1ccc(C2=Nn3c(NN=C4C(=O)N(C)c5ccc(Br)cc54)nnc3SC2)cc1 | cell growth or viability | SRB | 10 µM |  |  | inhibition | 18% |
| CC(=C(c1ccc(O)cc1)c1ccc(Cl)cc1)c1ccc(Cl)cc1 | cell growth or viability |  |  |  |  | GI50 | 0.65 µM |
| CC(=O)OC[C@H]1O[C@@H](Sc2sc(C(=O)c3ccc(C)cc3)c(N)c2-c2nc3ccccc3s2)[C@H](OC(C)=O)[C@@H](OC(C)=O)[C@@H]1OC(C)=O |  | SRB | 10 µM | 48 h |  | growth | 80% |
| CC/C=C\C/C=C\C/C=C\C/C=C\C/C=C\C/C=C\CCC(=O)Nc1ccn(C2OC(CO)C(O)C2(F)F)c(=O)n1 (centres unmarked) |  | NCI60 screen |  |  |  | TGI | 13.3 µM |
| CCC(=C(c1ccc(Cl)cc1)c1ccc(OCCCN(C)C)cc1)c1ccc(OC)cc1 | cell growth or viability |  |  |  |  | GI50 | 1.05 µM |
| Cc1sc2c(c1C)C(c1ccc(Cl)cc1)=N[C@@H](CC(=O)NCC(=O)N1CCC3(CCC(C(=O)N4CCN(C(=O)c5cc(Cc6n[nH]c(=O)c7ccccc67)ccc5F)CC4)CC3)CC1)c1nnc(C)n1-2 | cell growth or viability | ATP luminescence |  | 72 h |  | IC50 | 0.0046 µM |
| CC(C)N(CCOCCOCCOCCNc1cccc2c1C(=O)N(C1CCC(=O)NC1=O)C2=O)CC[C@H](CSc1ccccc1)Nc1ccc(S(=O)(=O)NC(=O)c2ccc(N3CCN(CC4=C(c5ccc(Cl)cc5)CCC(C)(C)C4)CC3)cc2)cc1S(=O)(=O)C(F)(F)F (some centres unmarked) | cell growth or viability | MTS |  | 48 h |  | IC50 | 0.0594 µM |
| O=C1Nc2ccccc2/C1=N\Nc1nnc2n1N=C(c1ccc(Cl)cc1)CS2 | cell growth or viability | SRB | 10 µM |  |  | inhibition | 17% |

Excerpt of the above:
| SMILES | observed | method | tested at | time | added | endpoint | result |
| --- | --- | --- | --- | --- | --- | --- | --- |
| CCC(=C(c1ccc(Cl)cc1)c1ccc(OCCCN(C)C)cc1)c1ccc(OC)cc1 | cell growth or viability |  |  |  |  | GI50 | 1.05 µM |
